# Results from different studies.
# A part holds a random share of what one study measured. Positions count from the first letter of the parent shown.
# UniProt P42336, sequence (whole entry, unmodified, looked up): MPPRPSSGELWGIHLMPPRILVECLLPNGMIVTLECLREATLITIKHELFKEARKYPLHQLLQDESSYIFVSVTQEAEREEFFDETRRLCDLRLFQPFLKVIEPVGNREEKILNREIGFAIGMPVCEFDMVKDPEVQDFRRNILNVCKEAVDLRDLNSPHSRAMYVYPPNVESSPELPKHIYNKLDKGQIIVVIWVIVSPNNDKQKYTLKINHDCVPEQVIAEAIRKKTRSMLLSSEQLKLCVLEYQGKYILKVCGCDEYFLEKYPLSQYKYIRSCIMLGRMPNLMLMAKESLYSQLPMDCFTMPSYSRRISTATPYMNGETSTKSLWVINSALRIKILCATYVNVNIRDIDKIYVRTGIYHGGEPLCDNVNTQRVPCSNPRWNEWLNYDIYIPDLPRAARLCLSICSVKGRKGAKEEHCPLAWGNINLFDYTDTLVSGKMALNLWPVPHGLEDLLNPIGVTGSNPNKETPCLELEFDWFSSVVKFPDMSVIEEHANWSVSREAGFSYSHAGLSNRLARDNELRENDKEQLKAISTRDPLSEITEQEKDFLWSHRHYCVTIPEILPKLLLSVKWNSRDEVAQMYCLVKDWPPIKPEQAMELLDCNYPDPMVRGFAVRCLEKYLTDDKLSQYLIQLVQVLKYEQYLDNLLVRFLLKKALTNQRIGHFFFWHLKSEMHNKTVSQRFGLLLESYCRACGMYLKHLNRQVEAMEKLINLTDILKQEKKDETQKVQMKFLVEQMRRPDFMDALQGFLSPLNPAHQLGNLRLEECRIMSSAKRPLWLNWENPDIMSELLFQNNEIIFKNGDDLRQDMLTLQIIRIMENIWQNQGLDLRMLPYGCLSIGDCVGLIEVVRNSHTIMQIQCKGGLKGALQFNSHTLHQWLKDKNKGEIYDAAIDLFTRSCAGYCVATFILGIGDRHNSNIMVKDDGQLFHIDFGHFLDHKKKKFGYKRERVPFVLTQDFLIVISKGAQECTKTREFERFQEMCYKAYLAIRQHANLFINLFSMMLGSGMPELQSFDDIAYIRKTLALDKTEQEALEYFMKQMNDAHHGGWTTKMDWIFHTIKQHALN

# Series 1
# Target: CCNA2, cyclin fold, Cln2 fusion (human)
# Technique: yeast growth competition, sequencing
# Sample: yeast
# Notes: strong parent motif
# Reference: not given
# Reading: higher = stronger binding
# Starting sequence: REPIN1 docking peptide (human); QSFRGWVALVLHL
Substitution,normalised enrichment score
QAFRGWVALVLHL [S2A],1.4
QSFRGWVALVLAL [H12A],1.41
QSFRGWVAAVLHL [L9A],1.25
ASFRGWVALVLHL [Q1A],1.36
QSFAGWVALVLHL [R4A],1.01
QSFRGAVALVLHL [W6A],0.992

# Series 2
# Target: Phosphate system positive regulatory protein PHO4, full length, GST-tagged (PHO4, Saccharomyces cerevisiae, UniProt P07270, residues 1-312)
# Technique: competition protein-binding microarray
# Form: double-stranded DNA, one strand shown
# Sample: in vitro
# Tested at: 2 µM
# Notes: whole 60-bp probe, lowest competitor level
# With: Cbf1 competitor, 0.05 µM
# Reading: higher = stronger binding
# Constant ends, left off below: … GTCTTGATTCGCTTGACGCTGCTG
# Residues (chain): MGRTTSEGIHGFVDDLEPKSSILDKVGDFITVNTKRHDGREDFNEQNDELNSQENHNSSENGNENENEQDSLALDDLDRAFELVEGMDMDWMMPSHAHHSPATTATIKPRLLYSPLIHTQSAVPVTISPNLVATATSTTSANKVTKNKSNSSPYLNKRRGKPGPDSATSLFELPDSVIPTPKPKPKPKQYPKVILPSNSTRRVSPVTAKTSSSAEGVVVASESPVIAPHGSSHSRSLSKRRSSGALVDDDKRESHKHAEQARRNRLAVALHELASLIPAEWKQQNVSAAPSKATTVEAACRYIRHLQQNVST
Oligonucleotide,fluorescence intensity [a.u.]
TAAACGAGAGAGATGGGCATGACAGTAGGTAGGGCA,4550
CATACCCAACCTTGTCGAGTGGGTGAAGATATTTGT,3740
TCCAACTGAGTCCATCACGCAGGCACCAGAAGCTGC,4950
CCAGGGGAGTAGTGAACCGTGCCAGCACCTCGGGTA,6660
TTCATTTTTGGTTAACTCGTGTAACTCTTCTTCCAA,6540
AACAATCTTCATAGCAACGTGAGTCTTGTTTACCAT,11100
TTTACCCATAAGTCCCACGATTATCCACTTTTTAAT,7720
GGGTAAGGTCTTTTTCGCGTGCTTTTATTTTATTCA,7700

# Series 3
# Target: Ephrin type-B receptor 3 (EPHB3, Homo sapiens, UniProt P54753)
# UniProt P54753, sequence (whole entry, looked up): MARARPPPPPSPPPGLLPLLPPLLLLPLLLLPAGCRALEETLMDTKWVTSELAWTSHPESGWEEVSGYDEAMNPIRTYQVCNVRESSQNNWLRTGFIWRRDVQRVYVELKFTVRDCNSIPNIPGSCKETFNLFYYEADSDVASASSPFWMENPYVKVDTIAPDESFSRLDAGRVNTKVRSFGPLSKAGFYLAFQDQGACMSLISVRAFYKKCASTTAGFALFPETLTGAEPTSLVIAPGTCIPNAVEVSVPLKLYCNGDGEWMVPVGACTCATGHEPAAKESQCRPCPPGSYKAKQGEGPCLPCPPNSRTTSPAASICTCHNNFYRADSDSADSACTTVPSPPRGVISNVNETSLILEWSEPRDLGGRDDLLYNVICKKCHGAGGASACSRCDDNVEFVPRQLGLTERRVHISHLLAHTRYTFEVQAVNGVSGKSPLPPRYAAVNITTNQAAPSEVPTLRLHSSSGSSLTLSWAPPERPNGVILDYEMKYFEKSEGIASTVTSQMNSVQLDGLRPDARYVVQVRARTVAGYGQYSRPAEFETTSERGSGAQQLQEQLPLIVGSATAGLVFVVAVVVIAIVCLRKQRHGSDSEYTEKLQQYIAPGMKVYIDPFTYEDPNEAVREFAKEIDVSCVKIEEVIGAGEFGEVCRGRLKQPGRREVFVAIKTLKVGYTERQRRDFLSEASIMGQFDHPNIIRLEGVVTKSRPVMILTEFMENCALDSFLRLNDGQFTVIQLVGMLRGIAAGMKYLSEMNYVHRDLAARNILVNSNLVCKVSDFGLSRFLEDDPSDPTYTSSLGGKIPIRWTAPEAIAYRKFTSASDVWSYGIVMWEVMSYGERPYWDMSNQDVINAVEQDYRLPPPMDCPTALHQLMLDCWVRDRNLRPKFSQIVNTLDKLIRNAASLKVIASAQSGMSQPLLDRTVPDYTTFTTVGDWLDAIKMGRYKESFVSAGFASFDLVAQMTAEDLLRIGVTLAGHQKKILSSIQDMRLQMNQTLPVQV
# Read-out: enzyme activity
# Action: inhibitor
# Tested at: 0.5 µM
# Reference: control
Structure (SMILES),remaining activity
NCCNc1ncc(C(N)=O)c(Nc2cccc(C(F)(F)F)c2)n1,95.4%
Cn1sc(=O)n(Cc2ccccc2)c1=O,91.3%
COc1ccc(OC)c2c(=S)c3ccccc3[nH]c12,91%
COc1ccc(CNC(=O)Nc2ncc([N+](=O)[O-])s2)cc1,101%
CN(C)c1ccc(C=C2C(=O)Nc3ccccc32)cc1,94.9%
CC(C)[C@H](CO)Nc1nc(Nc2cc(N)cc(Cl)c2)c2ncn(C(C)C)c2n1,95.3%

# Other studies, line by line
Structure (SMILES),target,read-out,technique,tested at,endpoint,result
CN([C@@H]1CCc2c(CC(=O)O)c3ccccc3n2C1)S(=O)(=O)c1ccc(F)cc1,"Phosphatidylinositol 4,5-bisphosphate 3-kinase catalytic subunit alpha isoform (PIK3CA, Homo sapiens, UniProt P42336, E542K)",cell-free assay,competition with immobilised ligand,1 µM,remaining binding,86%

# Repeated from above (series 2):
Oligonucleotide,fluorescence intensity [a.u.]
CCAGGGGAGTAGTGAACCGTGCCAGCACCTCGGGTA,6660
